# Assay results gathered from unrelated publications.
# Each numbered part is a random draw from the data of one study; scales do not carry over between parts. “And” joins repeats or separate records; there may be more than shown.
# Chain of UniProt Q9UJQ4 (whole entry, looked up): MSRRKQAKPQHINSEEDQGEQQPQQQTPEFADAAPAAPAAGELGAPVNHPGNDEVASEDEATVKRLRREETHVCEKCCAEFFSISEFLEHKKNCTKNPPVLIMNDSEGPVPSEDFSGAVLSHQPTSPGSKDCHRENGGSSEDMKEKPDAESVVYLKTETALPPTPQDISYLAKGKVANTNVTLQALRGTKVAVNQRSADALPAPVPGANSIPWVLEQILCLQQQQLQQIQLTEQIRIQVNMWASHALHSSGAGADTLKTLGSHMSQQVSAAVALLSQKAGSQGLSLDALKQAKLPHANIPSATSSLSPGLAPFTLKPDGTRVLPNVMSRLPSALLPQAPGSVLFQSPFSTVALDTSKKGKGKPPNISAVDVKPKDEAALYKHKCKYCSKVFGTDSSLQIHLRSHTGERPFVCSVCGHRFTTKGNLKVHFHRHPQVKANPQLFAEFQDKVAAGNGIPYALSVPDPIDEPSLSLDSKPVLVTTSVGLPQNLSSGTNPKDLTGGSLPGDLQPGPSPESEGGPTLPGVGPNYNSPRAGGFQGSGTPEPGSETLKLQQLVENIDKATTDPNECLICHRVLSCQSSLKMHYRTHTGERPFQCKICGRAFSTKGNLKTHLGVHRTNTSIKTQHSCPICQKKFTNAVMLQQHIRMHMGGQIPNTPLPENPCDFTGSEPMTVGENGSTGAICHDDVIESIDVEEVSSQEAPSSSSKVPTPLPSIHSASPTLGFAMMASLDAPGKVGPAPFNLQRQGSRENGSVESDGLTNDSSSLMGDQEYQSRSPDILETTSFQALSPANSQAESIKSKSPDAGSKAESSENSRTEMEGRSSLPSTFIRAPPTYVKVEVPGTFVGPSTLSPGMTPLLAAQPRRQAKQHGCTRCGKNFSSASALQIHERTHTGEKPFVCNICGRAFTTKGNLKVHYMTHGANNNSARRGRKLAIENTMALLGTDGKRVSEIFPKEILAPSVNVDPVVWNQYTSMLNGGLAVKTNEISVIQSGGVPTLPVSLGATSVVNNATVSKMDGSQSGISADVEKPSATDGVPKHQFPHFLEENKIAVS

# Study 1
# Compound: C=CCN1C(=O)C(O)(C(=O)O)Oc2cc(F)ccc21 (centres unmarked)
organism,assay,test system,setting,how to read,inhibition
Arabidopsis thaliana,root length,Col-0,"50.0 µg/mL, 7 days, seed germination, dark",,28.5%
Alopecurus aequalis,fresh weight,,"150 g ai/ha, pre-emergence treatment",,7.4% and 9.1% and 9.6%
Arabidopsis thaliana,root length,"Col-0, seedlings",12.5 µg/mL,reference: water control,14.5%
Arabidopsis thaliana,root length,Col-0,"6.25 µg/mL, 7 days, seed germination, dark",,17.6%
Oryza sativa,fresh weight,,"soil surface spray, 150 g ai/ha, 21 days, pre-emergence crop safety",,2% and 3% and 4.5%
Eclipta prostrata,fresh weight,,"150 g ai/ha, post-emergence treatment",,50.4% and 47.9% and 52.8%
Arabidopsis thaliana,root length,Col-0,"12.5 µg/mL, 7 days, seed germination, dark",,14.5%

# Study 2
# Structure (SMILES): CCCCC[C@@H]1CC(=O)N[C@@H](C(C)C)C(=O)N[C@H](CCCNC(=N)N)C(=O)N[C@@H](CO)C(=O)NCC(=O)N(C)[C@H](Cc2ccccc2)C(=O)N[C@@H](CC(C)C)C(=O)N[C@H](CCCNC(=N)N)C(=O)N[C@@H](CC(N)=O)C(=O)N[C@H](C(C)C)C(=O)N[C@H](Cc2c[nH]c3ccccc23)C(=O)NCCCC(=O)O1
# Organism: Staphylococcus aureus
# Strain: USA300
# Tested at: 2 x MIC
setting,viable cells
0 min,4.4e+08 CFU/mL and 4.9e+08 CFU/mL and 3.8e+08 CFU/mL
360 min,400 CFU/mL and 500 CFU/mL and 600 CFU/mL
240 min,500 CFU/mL and 800 CFU/mL and 400 CFU/mL
60 min,1400 CFU/mL and 800 CFU/mL and 1000 CFU/mL
300 min,800 CFU/mL and 600 CFU/mL

# Study 3
# Compound: Cn1cc(-c2cccc(CN3CCC4(CC3)COc3c4ccc4c3CN([C@H]3CCC(=O)NC3=O)C4=O)c2)cn1
# Mode: degrader
# DNA-binding protein Ikaros: DNA-binding protein Ikaros (Homo sapiens, UniProt Q13422)
# Chain of UniProt Q13422 (whole entry, looked up): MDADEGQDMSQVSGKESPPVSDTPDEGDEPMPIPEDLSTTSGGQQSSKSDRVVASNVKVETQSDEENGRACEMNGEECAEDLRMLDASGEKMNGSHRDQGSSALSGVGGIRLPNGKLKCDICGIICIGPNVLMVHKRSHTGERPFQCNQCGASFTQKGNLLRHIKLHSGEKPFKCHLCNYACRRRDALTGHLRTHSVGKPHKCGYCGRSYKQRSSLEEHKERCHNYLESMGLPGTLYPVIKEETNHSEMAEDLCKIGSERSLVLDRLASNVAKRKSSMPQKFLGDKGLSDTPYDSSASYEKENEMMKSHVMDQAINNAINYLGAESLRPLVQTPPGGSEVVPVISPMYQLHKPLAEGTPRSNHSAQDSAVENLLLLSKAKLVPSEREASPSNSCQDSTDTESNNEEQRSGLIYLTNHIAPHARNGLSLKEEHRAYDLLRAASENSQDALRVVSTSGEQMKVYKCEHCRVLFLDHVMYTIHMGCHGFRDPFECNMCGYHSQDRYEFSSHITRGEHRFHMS
# CRBN/Zinc finger protein Helios: CRBN/Zinc finger protein Helios (Homo sapiens, UniProt Q96SW2+Q9UKS7)
# Chain of UniProt Q96SW2 (whole entry, looked up): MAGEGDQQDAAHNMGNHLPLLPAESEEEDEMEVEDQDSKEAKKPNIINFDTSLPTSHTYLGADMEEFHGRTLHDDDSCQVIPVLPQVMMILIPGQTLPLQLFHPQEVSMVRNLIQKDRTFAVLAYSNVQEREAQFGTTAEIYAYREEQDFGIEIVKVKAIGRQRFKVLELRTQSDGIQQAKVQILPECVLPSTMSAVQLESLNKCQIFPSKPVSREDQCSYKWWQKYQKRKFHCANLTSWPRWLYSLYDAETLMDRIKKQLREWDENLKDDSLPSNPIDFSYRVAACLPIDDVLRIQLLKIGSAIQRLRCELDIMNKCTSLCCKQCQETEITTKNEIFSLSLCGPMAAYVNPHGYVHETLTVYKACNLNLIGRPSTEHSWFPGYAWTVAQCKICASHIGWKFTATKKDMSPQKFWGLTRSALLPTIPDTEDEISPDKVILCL
# Chain of UniProt Q9UKS7 (whole entry, looked up): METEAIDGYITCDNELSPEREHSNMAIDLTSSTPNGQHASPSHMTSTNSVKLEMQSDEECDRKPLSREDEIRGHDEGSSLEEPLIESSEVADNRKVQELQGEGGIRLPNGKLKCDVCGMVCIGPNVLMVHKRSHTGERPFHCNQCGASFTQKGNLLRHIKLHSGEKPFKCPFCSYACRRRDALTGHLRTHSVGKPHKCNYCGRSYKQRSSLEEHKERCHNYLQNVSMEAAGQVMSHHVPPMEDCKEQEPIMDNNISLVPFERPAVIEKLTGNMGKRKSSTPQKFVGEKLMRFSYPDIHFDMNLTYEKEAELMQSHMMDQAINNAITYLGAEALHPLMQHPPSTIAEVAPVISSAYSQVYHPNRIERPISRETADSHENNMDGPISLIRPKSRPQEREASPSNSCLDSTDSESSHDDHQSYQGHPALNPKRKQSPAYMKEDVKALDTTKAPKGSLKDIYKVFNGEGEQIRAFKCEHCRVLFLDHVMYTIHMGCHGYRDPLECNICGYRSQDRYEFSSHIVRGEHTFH
# CSNK1A1: Casein kinase I isoform alpha (CSNK1A1, Homo sapiens, UniProt P48729)
# Chain of UniProt P48729 (whole entry, looked up): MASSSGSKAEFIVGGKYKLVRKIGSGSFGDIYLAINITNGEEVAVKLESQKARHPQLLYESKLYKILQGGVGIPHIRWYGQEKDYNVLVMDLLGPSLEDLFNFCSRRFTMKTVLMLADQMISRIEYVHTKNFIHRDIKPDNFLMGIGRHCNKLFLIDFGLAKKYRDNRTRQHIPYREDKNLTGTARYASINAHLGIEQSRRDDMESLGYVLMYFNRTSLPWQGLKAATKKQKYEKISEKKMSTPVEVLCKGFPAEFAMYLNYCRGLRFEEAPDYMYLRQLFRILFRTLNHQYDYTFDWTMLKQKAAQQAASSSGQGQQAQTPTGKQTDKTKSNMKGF
# GSPT1: Eukaryotic peptide chain release factor GTP-binding subunit ERF3A (GSPT1, Homo sapiens, UniProt P15170)
# Chain of UniProt P15170 (whole entry, looked up): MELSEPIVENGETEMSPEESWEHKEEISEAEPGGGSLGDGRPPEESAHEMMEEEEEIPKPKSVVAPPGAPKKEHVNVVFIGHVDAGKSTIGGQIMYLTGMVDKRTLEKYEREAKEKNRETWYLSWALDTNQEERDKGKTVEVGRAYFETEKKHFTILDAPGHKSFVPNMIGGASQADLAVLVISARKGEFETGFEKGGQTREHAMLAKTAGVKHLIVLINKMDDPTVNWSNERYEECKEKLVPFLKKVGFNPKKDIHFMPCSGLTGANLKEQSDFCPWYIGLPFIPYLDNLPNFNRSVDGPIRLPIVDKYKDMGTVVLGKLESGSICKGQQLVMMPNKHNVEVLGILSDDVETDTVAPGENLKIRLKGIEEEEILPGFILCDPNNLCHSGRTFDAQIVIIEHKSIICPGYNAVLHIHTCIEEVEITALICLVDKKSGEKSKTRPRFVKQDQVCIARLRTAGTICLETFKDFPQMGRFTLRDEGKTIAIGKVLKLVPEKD
# Zinc finger protein Aiolos: Zinc finger protein Aiolos (Homo sapiens, UniProt Q9UKT9)
# Chain of UniProt Q9UKT9 (whole entry, looked up): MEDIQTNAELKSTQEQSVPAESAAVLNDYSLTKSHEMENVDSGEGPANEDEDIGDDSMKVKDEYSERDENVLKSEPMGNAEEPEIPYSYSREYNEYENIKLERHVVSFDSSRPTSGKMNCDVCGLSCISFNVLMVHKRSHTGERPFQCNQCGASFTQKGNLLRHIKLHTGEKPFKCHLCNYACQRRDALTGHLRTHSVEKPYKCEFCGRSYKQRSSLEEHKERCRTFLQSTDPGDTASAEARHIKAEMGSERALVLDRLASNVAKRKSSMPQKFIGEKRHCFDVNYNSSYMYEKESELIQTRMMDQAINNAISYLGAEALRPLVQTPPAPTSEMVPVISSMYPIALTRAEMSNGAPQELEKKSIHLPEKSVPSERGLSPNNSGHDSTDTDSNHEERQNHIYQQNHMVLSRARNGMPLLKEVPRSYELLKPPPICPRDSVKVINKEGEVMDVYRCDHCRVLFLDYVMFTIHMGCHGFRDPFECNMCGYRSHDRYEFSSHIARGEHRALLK
# IKZF4: Zinc finger protein Eos (IKZF4, Homo sapiens, UniProt Q9H2S9)
# Chain of UniProt Q9H2S9 (whole entry, looked up): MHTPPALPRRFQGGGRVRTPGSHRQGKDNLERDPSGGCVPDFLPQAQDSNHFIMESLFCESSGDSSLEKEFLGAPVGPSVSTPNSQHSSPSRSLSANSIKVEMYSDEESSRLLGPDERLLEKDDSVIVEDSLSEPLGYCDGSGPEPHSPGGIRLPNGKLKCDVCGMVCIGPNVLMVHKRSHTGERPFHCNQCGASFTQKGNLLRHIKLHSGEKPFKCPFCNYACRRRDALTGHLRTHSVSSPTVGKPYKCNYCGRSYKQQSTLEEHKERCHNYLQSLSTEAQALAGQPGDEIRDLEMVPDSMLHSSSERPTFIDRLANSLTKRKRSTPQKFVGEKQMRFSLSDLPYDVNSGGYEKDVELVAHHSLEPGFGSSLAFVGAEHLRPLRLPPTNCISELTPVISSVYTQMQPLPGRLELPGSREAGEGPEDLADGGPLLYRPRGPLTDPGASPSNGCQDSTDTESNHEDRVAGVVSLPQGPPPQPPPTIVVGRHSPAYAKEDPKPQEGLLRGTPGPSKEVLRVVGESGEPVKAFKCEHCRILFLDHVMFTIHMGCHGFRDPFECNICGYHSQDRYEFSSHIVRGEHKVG
target,assay,test system,setting,remaining protein
DNA-binding protein Ikaros,HiBiT,HEK293,10000 nM,90.6% and 88.4%
CRBN/Zinc finger protein Helios,flow cytometry,primary human regulatory T cells,"333.3 nM, 3 h",25.8% and 36%
CSNK1A1,HiBiT,HEK293,10000 nM,90.2% and 99.2%
DNA-binding protein Ikaros,HiBiT,HEK293,1111.11 nM,92.5% and 94.2%
GSPT1,HiBiT,HEK293,3333.33 nM,100% and 103%
GSPT1,HiBiT,HEK293,0.5081 nM,86.2% and 98.4%
CRBN/Zinc finger protein Helios,flow cytometry,Jurkat,37 nM,52.6% and 51.4%
CRBN/Zinc finger protein Helios,flow cytometry,Jurkat,0.1 nM,108% and 103%
DNA-binding protein Ikaros,HiBiT,HEK293,0.1694 nM,106% and 99.8%
Zinc finger protein Aiolos,HiBiT,HEK293,0.5081 nM,95.7% and 96.4%
CSNK1A1,HiBiT,HEK293,3333.33 nM,95% and 98.6%
IKZF4,HiBiT,HEK293,"4.115 nM, 6 h",97.1% and 102%
CRBN/Zinc finger protein Helios,flow cytometry,primary human regulatory T cells,"12.35 nM, 3 h",67.1% and 61.4%
GSPT1,HiBiT,HEK293,1.524 nM,94.8% and 102%
IKZF4,HiBiT,HEK293,"37.04 nM, 6 h",98.9% and 105%
DNA-binding protein Ikaros,HiBiT,HEK293,370.37 nM,91% and 90.4%
"Sal-like protein 4 (SALL4, Homo sapiens, UniProt Q9UJQ4)",HiBiT,HEK293,370.37 nM,69.6% and 64.6%
CSNK1A1,HiBiT,HEK293,0.1694 nM,106% and 97.7%
IKZF4,HiBiT,HEK293,"0.4572 nM, 3 h",98.5% and 114%
Zinc finger protein Aiolos,HiBiT,HEK293,1111.11 nM,87.8% and 91.4%

# Study 4
# Structure (SMILES): CC(C)OC(=O)[C@H](CCC(=O)C=[N+]=[N-])NC(=O)[C@H](Cc1c[nH]c2ccccc12)NC(=O)C12CCN(CC1)CC2
# Cell line: P493B lymphoma cells
setting,viability
30 µM,83.1%
300 nM,104%
3 µM,116%
10 µM,96%

# Study 5
# SMILES: N=C(N)NCCCCCCN1CCC23c4c5ccc(O)c4OC2c2nc4ccccc4cc2CC3(O)C1C5 (centres unmarked)
# Method: modified Racine scale
# Species: C57BL/6J mice, male
# Route: intracerebroventricular
# Dose: 100 nmol
# Reading: direction not given
setting,seizure score
75 min,0
40 min,0
5 min,0
20 min,0
30 min,0

# Some of these lines once more (study 3):
target,assay,test system,setting,remaining protein
CSNK1A1,HiBiT,HEK293,0.1694 nM,106% and 97.7%
CSNK1A1,HiBiT,HEK293,10000 nM,90.2% and 99.2%
CRBN/Zinc finger protein Helios,flow cytometry,Jurkat,0.1 nM,108% and 103%
GSPT1,HiBiT,HEK293,1.524 nM,94.8% and 102%
CRBN/Zinc finger protein Helios,flow cytometry,primary human regulatory T cells,"12.35 nM, 3 h",67.1% and 61.4%
"Sal-like protein 4 (SALL4, Homo sapiens, UniProt Q9UJQ4)",HiBiT,HEK293,370.37 nM,69.6% and 64.6%
